Measured values gathered from unrelated publications.
Every numbered part comes from another study and shows a few of its results, in no order.
Sequence of UniProt P05771 (whole entry, looked up): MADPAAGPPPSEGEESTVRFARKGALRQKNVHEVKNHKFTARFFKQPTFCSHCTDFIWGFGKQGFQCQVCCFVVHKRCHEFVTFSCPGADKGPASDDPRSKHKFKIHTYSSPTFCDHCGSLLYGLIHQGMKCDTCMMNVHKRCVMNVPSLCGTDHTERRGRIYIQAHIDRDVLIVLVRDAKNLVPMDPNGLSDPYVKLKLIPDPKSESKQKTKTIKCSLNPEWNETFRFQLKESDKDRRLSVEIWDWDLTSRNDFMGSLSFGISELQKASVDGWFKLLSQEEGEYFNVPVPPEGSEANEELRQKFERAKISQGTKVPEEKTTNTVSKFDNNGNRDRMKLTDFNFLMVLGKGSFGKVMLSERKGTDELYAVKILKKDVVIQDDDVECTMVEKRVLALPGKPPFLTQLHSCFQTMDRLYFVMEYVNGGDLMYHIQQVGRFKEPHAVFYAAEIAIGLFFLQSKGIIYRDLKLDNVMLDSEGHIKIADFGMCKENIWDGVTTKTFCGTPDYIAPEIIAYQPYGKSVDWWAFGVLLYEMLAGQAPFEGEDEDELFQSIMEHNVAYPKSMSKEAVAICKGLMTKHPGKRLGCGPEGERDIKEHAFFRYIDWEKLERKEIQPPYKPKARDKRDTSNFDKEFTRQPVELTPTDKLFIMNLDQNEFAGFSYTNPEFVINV

Block 1 — technique: RNA Bind-n-Seq; form: RNA; matrix: in vitro; concentration: 20 nM; setting: 6-mer, flanks averaged, single round; with: 150 mM KCl; relative to: input library; reading: higher = stronger binding
Target: TAR DNA-binding protein 43, full length, His tag (TARDBP, Homo sapiens, UniProt Q13148, residues 1-414)
`GCACCU` — result for “6-mer enrichment (R)”: 0.714.
For `UGAACU`, “6-mer enrichment (R)” read 0.642.
`GCGUAA` — result for “6-mer enrichment (R)”: 0.934.
`GGGCUG`: “6-mer enrichment (R)” 3.7.
For `GAGUAG`, “6-mer enrichment (R)” read 1.47.
Under “6-mer enrichment (R)”, `AACCUU` is recorded as 0.601.
`CCCGUC` — result for “6-mer enrichment (R)”: 0.598.
Under “6-mer enrichment (R)”, `UCGUUC` is recorded as 0.541.

Block 2 — technique: RNA Bind-n-Seq; form: RNA; matrix: in vitro; concentration: not given; relative to: input RNA pool; reading: higher = stronger binding
Target: RING finger protein unkempt homolog, zinc fingers 1-6, GST-SBP tag (UNK, Homo sapiens, UniProt Q9C0B0, residues 30-357)
Setting: RNA with constant flanks, human-mouse chimeric sites, ends assumed
Shared flanks, not repeated: GGGAGUUCUACAGUCCGACGAUC … CAACAGAGGAUUGAGCAUCA
Construct (chain): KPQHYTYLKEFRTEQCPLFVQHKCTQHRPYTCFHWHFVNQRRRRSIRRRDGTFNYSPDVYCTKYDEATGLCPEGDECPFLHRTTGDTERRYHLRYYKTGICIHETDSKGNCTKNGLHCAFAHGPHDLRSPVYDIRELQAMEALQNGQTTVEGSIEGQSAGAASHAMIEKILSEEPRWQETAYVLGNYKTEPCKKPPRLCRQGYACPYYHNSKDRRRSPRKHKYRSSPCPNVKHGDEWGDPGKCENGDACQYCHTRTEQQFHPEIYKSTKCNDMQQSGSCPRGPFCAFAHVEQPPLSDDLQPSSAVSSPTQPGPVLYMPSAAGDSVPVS
`GGCCUGGGACCGUCCUGGGCUAGUACAAAUAGCGGCAUGGAGGCUCAGAGAGGAAAGUUGUUAGUGGGAGGCAGUGGUAGAGGCCGUCAUGUACGGUCCUUUACUCGAUAGAUGUGUUCU` gave a bound/input enrichment of 0.63 ratio.
For `GUGCCCUUCUCGCUGCUCCUGCGGGGCAGCUGGGAACCAUUCCGGGACGACUGGUACGCACACAGCCGCCUCUUCGAUCAAGCUUUCGGGGUGCCCCGGUUGCCCGAUGAGUGGUCGCAG`, the bound/input enrichment was 0.0755 ratio.
With `CCCCAAUACCAUUUGCAAGAGUUGGAAUGCACUCUCUUUUUUAAAAAACAUGUAUACAUUUUAGGGCUGUAGAUUUACUUUCCUAUUUUUGUUUUUCAUUGCUGACUUUUGAGCACAGAA` the bound/input enrichment was 0.969 ratio.
The bound/input enrichment of `GGAAGUACAAUGAUGGAGAUUGAUGGUGACAAAGGCAAGCAGGGCGGGCCCACCUACUACAUAGACACCAAUGCCCUGCGUGUUCCGAGGGAGAACAUGGAGGCCAUUUCACCUCUAAAG` is reported as 0.284 ratio.
For `AGAGAUAAAGCAUCUAGGAACAUGCGAGGCUCCCGGAUGAAUGGACUGCCUAGCCCCACUCACAGCGCCCACUGUAGCUUCUACCGAACCAGAACCUUGCAGGCACUGAGUAAUGAGAAG`, the bound/input enrichment was 0.191 ratio.
With `GGACAUCUUGUCAGGAUUUAUGUUCCUGUGAAACAAGUGAGCACUUUGAUACACUUCAUCUGCUUGUACAUCUGUAUGAUAGAGAAAUGUAAAUAUGUUAAUCCAAGCAAUGUGUCACUU` the bound/input enrichment was 0.201 ratio.
With `AGCACAACACCAGCUAAGCUAAGAAAUCCUUGUACAAGUGAACAAAACUGCACCAGCCCAUUUAGCUACAAAAAUGUGCUUAGUCUUACUGACAGAGGAGAAGUAUUCAAUGAACUUGUU` the bound/input enrichment was 0.82 ratio.
With `GAGCCAAGCCGGCAGUUUGUAAAGGACUCAAUUCGGCUGGUUAAAAGAUGCACCAAACCUGAUAGAAAAGAAUUCCAGAAGAUUGCCAUGGCUACAGCUAUAGGAUUUGCUAUCAUGGGA` the bound/input enrichment was 0.222 ratio.

Further values, each from its own experiment
`PhoQ, residues 284 288 289 292 302 303 TVTVVA` has a fold induction of 5.65 (PhoP, residues 12 14 15 18 19 IFFTR (Escherichia coli, UniProt P23836); Sort-seq, measured: YFP reporter; E. coli; PhoQ-PhoP variant library, with: 10 µM Mg2+; relative to: high Mg2+ state, higher = stronger signaling).
For `N#CC(C#N)=C(N)/C(C#N)=C/c1ccc(O)cc1`, the remaining activity was 114% (Protein kinase C beta type, isoform beta-I (PRKCB, Homo sapiens, UniProt P05771); enzyme activity, inhibitor; 0.5 µM; relative to: control).
